Published values collected from several papers.
Lines come from different studies, so protocols differ. Several values in a cell are separate wells, animals, samples, runs or records. ± marks the error that the study gave. Converted amounts (≈) assume the structure as drawn.

For `CC[C@H](C)[C@H](NC(=O)[C@H](C)NC(=O)[C@H](CCCCN)NC(=O)[C@H](CC(C)C)NC(=O)[C@H](C)NC(=O)[C@@H](NC(=O)[C@H](Cc1c[nH]cn1)NC(=O)[C@H](CC(C)C)NC(=O)[C@@H](NC(=O)[C@@H](NC(=O)[C@H](CCCCN)NC(=O)[C@H](C)NC(=O)[C@H](C)NC(=O)[C@H](CO)NC(=O)[C@H](CCCCN)NC(=O)[C@H](Cc1ccccc1)NC(=O)[C@@H](NC(=O)[C@H](CCCCN)NC(=O)[C@H](CC(C)C)NC(=O)[C@H](Cc1ccccc1)NC(=O)[C@H](CO)NC(=O)[C@H](CCCCN)NC(=O)[C@H](Cc1c[nH]c2ccccc12)NC(=O)[C@H](CCCCN)NC(C)=O)[C@@H](C)O)[C@@H](C)O)C(C)C)[C@@H](C)O)C(=O)N[C@@H](CO)C(=O)N[C@@H](CO)C(N)=O`, the MBC50 was 4 µg/mL (≈ 1.36 µM) (Acinetobacter baumannii; IPM-R; 87 strains).
`c1ccc(C(NCCNC(c2ccccc2)c2ccccc2)c2ccccc2)cc1` gave an inhibition of 66% (L-type calcium channel, rat, Phenylalkylamine site; binding; 10 µM, Eurofins selectivity panel).
`CN1CC[C@]23c4c5ccc(O)c4O[C@H]2[C@@H](OS(=O)(=O)O)C=C[C@H]3[C@H]1C5` — result for “peak increase in tail withdrawal latency”: 3.4 ± 0.5 s (hot water tail withdrawal test; STZ-diabetic Sprague-Dawley rats; ip, 0.3 mg/kg).
Under “log2 fold change”, `CC[C@H](C)[C@@H]1NC(=O)[C@@H]2CCCN2C(=O)[C@H](CC(C)C)NC(=O)[C@H](CC(C)C)NC(=O)CNC(=O)[C@@H](NC(=O)[C@@H](NC(=O)[C@H](CC(=O)O)NC(=O)CNC(=O)[C@@H](NC(=O)[C@H](C)NC(=O)CNC(=O)[C@H](CCCCN)NC(=O)[C@H](CC(C)C)NC(=O)[C@H](CC(C)C)NC(=O)[C@H](CCCCN)NC(=O)CNC(=O)[C@@H](NC(=O)[C@@H](N)CC(C)C)C(C)C)C(C)C)C(C)C)CSSC[C@@H](C(=O)O)NC1=O` is recorded as -4.9 (RNA-seq, measured: Olfr56 mRNA; mouse traumatic brain injury, frontal cortex and hippocampus; dose not given; relative to: TBI plus compound vs TBI).
`Cc1ccc(NNC(=O)c2nnc(CC34CC5CC(CC(C5)C3)C4)o2)cc1` has an EC50 of > 12.5 µg/mL (Fusarium graminearum; fungal growth, inhibitor).
The protein level of `C[C@H]1O[C@@H](O[C@H]2CC[C@@]3(C)[C@@H](CC[C@]4(C)[C@@H]3C=C[C@]35OC[C@@]6(CCC(C)(C)C[C@H]63)[C@@H](O)C[C@]54C)[C@]2(C)CO)[C@H](O)[C@@H](O[C@@H]2O[C@H](CO)[C@@H](O)[C@H](O)[C@H]2O)[C@H]1O` is reported as 0.475 and 0.507 and 0.541 (Western blot, measured: mTOR; mouse, hepatic SIRT1 knockdown (AAV8-TBG), liver; dose not given, high dose, unit not given, with: ethanol; relative to: β-actin).
`COc1ccc(-n2nc(C(C)=O)s/c2=N\N=C(/C)c2ccc(NC(C)=O)cc2)cc1` gave a toxicity of 94.8% (HepG2; 0.625 µM).
For `CS(=O)(=O)N1CCCC(NC(=O)[C@H](CCC2CCCCC2)NC(=O)c2ccc(CNC(=O)c3cnc4ccccn34)cc2)C1` (stereo partly shown), the inhibition was -11% (murine hepatitis virus; viral replication, nanoluciferase reporter; DBT; 1 µM, 10 h; relative to: DMSO vehicle).
With `OC(c1ccccc1)(c1ccccc1)C1CCNCC1` the IC50 was 690 ± 450 nM (AC16 cardiomyocytes; mitochondrial membrane potential decrease; 1 h).
`COc1cc(CCC[P+](c2ccccc2)(c2ccccc2)c2ccccc2)c(OC)c2c1OCO2.[I-]` gave a Log10LC50 of > -4 log M (HL-60(TB); SRB).
